Assay results from different studies.
Every numbered part comes from another study and shows a few of its results, in no order. Values joined by “and” are separate records of one study, mostly repeats; a detail may differ. Positions count from the first letter of the parent shown.

Block 1
Target: Histone acetyltransferase KAT6A, both winged helices, GST fusion (KAT6A, Homo sapiens, UniProt Q92794, residues 1-181)
Technique: protein binding microarray
Form: double-stranded DNA, one strand shown
Matrix: in vitro
Tested at: not given
Notes: 8-mer, flanks averaged, mean of 2 arrays, mostly near background
Reference: not given
Reading: higher = stronger binding
Construct (chain): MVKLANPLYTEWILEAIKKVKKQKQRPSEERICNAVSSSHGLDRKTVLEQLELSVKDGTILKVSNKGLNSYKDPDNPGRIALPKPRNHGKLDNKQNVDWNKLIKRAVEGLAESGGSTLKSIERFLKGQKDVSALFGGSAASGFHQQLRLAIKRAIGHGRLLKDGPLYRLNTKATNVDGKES
With `GACTCCCC` the E-score was -0.158.
With `CAACTCGC` the E-score was 0.0336.
The E-score of `GCGTAAGA` is reported as 0.154.
The E-score of `ATCTCATA` is reported as -0.196.
`CTACACGC` has an E-score of 0.001.
`AAGCACAG` gave an E-score of -0.164.
With `ATCGTGGA` the E-score was -0.139.
The E-score of `ATCCCGAG` is reported as 0.168.
`GAGCAATA` gave an E-score of -0.261.
`AGTCGGAG` gave an E-score of -0.0353.
For `CACGTATG`, the E-score was -0.00138.
`ATCAACGG` has an E-score of 0.181.
With `AACTCAGT` the E-score was -0.192.
`CAGCAATC` gave an E-score of -0.201.
For `TACACACA`, the E-score was -0.137.
The E-score of `CCCCTGCC` is reported as -0.0878.
For `ACGGATTC`, the E-score was 0.143.
`AGACCAAT` gave an E-score of -0.146.
The E-score of `AAGCATGG` is reported as -0.132.
`AATTTTCG` has an E-score of 0.00852.

Block 2
Target: Ras GTPase-activating protein-binding protein 1, C-terminal RGG region (G3BP1, Homo sapiens, UniProt Q13283)
Sequence of UniProt Q13283 (whole entry, looked up): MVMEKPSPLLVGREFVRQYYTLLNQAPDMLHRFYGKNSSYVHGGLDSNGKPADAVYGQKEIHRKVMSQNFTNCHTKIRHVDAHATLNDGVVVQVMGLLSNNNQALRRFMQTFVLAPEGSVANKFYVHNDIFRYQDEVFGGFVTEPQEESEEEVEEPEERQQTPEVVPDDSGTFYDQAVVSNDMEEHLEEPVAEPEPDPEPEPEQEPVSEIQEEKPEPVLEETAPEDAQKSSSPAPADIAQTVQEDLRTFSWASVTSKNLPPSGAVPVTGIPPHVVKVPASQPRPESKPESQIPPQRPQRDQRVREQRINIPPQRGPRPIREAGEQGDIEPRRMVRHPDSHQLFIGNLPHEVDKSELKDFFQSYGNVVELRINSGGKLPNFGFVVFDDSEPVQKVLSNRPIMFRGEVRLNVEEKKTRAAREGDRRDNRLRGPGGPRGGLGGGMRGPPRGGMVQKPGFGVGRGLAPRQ
Technique: RNA Bind-n-Seq
Form: RNA
Matrix: in vitro
Tested at: 1 µM
Notes: whole 134-nt RNA, ends assumed
With: 150 mM KCl
Reference: input library
Reading: higher = stronger binding
With `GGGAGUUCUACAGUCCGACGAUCAGUCCUGUGCUACACAUCGUAUGUACCGAAUCGGGUUUUUUUGGGAGGGUUUUUGGGAAAGUAUUAUGUUACGCCGUUCGGAUCUGCACUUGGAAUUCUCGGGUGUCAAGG` the log2 enrichment was 0.87.
With `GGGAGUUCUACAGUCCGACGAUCGUCCUGUGCUACACAUCGUAUGUACCGAAUCGGGAAAAAAAGGGUUUUUUUGGGAGGGAAAGUAUUAUGUUACGCCGUUCGGAUCUGCACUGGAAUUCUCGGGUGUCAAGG` the log2 enrichment was -0.171.
`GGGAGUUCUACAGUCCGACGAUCUGGCCCUGGUGGCAUGGGGGGAGGAAGAGGUGGCCUCAUGGAUCGUGGUGGUCCCGGUGGAAUGUUCAGAGGUGGCCGUGGUGGAGACAGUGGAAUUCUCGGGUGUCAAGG` has a log2 enrichment of 2.32.
For `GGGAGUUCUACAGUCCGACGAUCCACAGACAACACGCACCCACACAGCCACAGAGGGAAGGGGUUGGGAUGGGGACAGGGUGCACAGCAGGGCGGGGUAGGACCCCAGCCCCUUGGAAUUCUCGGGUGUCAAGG`, the log2 enrichment was -0.148.
`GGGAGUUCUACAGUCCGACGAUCGUCCUGUGCUACACAUCGUAUGUACCGAAUCGGGGUUUGGGGAGGGGUUUUUUUGGGGAAAGUAUUAUGUUACGCCGUUCGGAUCUGCACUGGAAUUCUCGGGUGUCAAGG` has a log2 enrichment of 2.02.
`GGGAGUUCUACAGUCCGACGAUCGUCCUGUGCUACACAUCGUAUGUACCGAAUCGGGUGGGUUUUUUUGGGAAAAAAAGGGAAAGUAUUAUGUUACGCCGUUCGGAUCUGCACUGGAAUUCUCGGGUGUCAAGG` has a log2 enrichment of -0.368.
`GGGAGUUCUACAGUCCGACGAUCAGUCCUGUGCUACACAUCGUAUGUACCGAAUCGGGUUUUUUUGGGUGGGAAAAAGGGAAAGUAUUAUGUUACGCCGUUCGGAUCUGCACUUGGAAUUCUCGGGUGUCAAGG` gave a log2 enrichment of 0.821.
With `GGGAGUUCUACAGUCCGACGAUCAAGUCCUGUGCUACACAUCGUAUGUACCGAAUCGGGGUUUGGGUUUGGGUUUGGGGAAAGUAUUAUGUUACGCCGUUCGGAUCUGCACUUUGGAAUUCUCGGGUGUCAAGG` the log2 enrichment was 2.01.
`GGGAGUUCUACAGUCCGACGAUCUGUGCUACACAUCGUAUGUACCGAAUCGGGGUUUUUUUGGGGUUUUUUUGGGUUUUUUUGGGAAAGUAUUAUGUUACGCCGUUCGGAUCUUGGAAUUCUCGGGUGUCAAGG` gave a log2 enrichment of -0.835.
The log2 enrichment of `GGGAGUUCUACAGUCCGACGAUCUAACUUUAGAGGAGGAUCUGAUGGAUAUGGCAGUGGACGUGGAUUUGGGGAUGGCUAUAAUGGGUAUGGAGGAGGACCUGGAAGUGGCAAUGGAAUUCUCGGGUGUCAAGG` is reported as -0.806.

Block 3
Target: CCNE1, cyclin fold, Cln2 fusion (human)
Technique: yeast growth competition, sequencing
Matrix: yeast
Notes: strong parent motif
Reference: not given
Reading: higher = stronger binding
Starting sequence: RBL1 docking peptide (human); GSAKRRLFGEDPP; partner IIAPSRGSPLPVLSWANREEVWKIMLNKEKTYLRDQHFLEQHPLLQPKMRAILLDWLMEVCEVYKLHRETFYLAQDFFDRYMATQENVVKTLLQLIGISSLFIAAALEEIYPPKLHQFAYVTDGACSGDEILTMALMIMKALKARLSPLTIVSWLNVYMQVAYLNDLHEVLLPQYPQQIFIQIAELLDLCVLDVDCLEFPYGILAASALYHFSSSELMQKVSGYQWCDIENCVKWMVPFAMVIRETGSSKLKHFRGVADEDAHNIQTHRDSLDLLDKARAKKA
`GSAKRRLFFEDPP [G9F]` — result for “normalised enrichment score”: 6.03.
`GSAKRRLFGEFPP [D11F]` — result for “normalised enrichment score”: 4.14.
`GKAKRRLFGEDPP [S2K]`: “normalised enrichment score” 6.04.
For `GSLKRRLFGEDPP [A3L]`, “normalised enrichment score” read 0.92.
`GSAKYRLFGEDPP [R5Y]`: “normalised enrichment score” 0.448.
`GSASRRLFGEDPP [K4S]` — result for “normalised enrichment score”: 2.69.
`GSAKRRLFGETPP [D11T]`: “normalised enrichment score” 6.15.
`GSAKRRLFKEDPP [G9K]`: “normalised enrichment score” 6.4.
`GSAKRRLFGECPP [D11C]` — result for “normalised enrichment score”: 5.3.
`GMAKRRLFGEDPP [S2M]` — result for “normalised enrichment score”: 5.25.
`GSAKRRLTGEDPP [F8T]`: “normalised enrichment score” 0.212.
`GSAKRRLFGEDAP [P12A]`: “normalised enrichment score” 6.57.
`GSAKRHLFGEDPP [R6H]`: “normalised enrichment score” 2.19.
`GSKKRRLFGEDPP [A3K]` — result for “normalised enrichment score”: 0.507.

Block 4
Target: Interferon regulatory factor 7, full length, phosphomimetic (IRF7, Homo sapiens, UniProt Q92985, residues 1-503, S101K/S471D/S472D/S475D/S476D/S477D/S483D/S484D/S487D)
Sequence of UniProt Q92985 (whole entry, unmodified, looked up): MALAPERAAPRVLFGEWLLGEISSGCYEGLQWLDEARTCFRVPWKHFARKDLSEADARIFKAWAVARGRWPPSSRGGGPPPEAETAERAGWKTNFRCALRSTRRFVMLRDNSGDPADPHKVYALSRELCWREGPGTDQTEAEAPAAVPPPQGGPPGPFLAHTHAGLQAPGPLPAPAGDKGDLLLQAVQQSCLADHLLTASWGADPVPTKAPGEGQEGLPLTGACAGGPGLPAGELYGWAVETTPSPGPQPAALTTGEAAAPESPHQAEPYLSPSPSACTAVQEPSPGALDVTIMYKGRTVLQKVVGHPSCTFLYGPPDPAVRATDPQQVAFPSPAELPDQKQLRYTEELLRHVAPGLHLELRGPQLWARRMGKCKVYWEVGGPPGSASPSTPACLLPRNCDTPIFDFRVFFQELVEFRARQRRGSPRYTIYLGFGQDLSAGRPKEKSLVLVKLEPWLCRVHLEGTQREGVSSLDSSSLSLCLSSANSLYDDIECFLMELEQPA
Technique: protein-binding microarray
Form: double-stranded DNA, one strand shown
Matrix: in vitro
Tested at: 250 nM
Notes: 60-bp whole probe
With: salmon DNA 0.4 mg/ml
Reference: random background probes
Reading: higher = stronger binding
Shared flanks, not repeated: GCCTAGCAC … GTCTTGATTCGCTTGACGCTGCTG
For `TCAGAACTGAGTATCGATTAGTGCTAG`, the log fluorescence was 0.487 z-score.
With `TTAGATCTCAGTCTCGCTTAGTGCTAG` the log fluorescence was 0.912 z-score.
`GTAAATCTTTTTCCCTATTAGTGCTAG` gave a log fluorescence of 1.79 z-score.
`TTAGGTTTCGGGACTGGCTTAGTGCTA` has a log fluorescence of 3.79 z-score.
For `TTAGAAATCAGTCTCGATTAGTGCTAG`, the log fluorescence was 1.7 z-score.
With `GACGATATCAGTCTCGTGACGTGCTAG` the log fluorescence was 0.141 z-score.
The log fluorescence of `TCACCTTGCTTTATGTGACTGTGCTAG` is reported as 0.338 z-score.
`GACGGTATCCGGTTTCGGGACGTGCTA` gave a log fluorescence of 3.16 z-score.
For `TTAGGTTTCCTACTGCTGTAGTGCTAG`, the log fluorescence was 1.51 z-score.
`GACGAACTGGGGTCTGGAGACGTGCTA` has a log fluorescence of -0.655 z-score.
`TCATATGTCCTGTCTACAACTGTGCTA` gave a log fluorescence of 0.547 z-score.
The log fluorescence of `TCATCTCCCAGACTGGAGTGGTGCTAG` is reported as 0.224 z-score.
`TTCAGTTTTCCTCTGTCATTGTGCTAG` gave a log fluorescence of 1.3 z-score.
For `TTAGCACTGGGGTTTCGGTTAGTGCTA`, the log fluorescence was 4.91 z-score.
The log fluorescence of `CTCTCTTTCCACTTGTCTTTGTGCTAG` is reported as 2.06 z-score.
With `GACGAACTGGGGTATAGAGACGTGCTA` the log fluorescence was -0.631 z-score.
For `TTAGGTTACCTACTGCTTTAGTGCTAG`, the log fluorescence was -0.134 z-score.

Block 5
Target: POU, POU domain (Salpingoeca helianthica)
Technique: Spec-seq
Form: double-stranded DNA, one strand shown
Matrix: in vitro
Tested at: not given
Notes: whole probe, mean of replicates
Reference: not given
Reading: lower = stronger binding
Shared flanks, not repeated: GAGTCGTCTCGTCAGCAC … CCGTAGAGCACTCAGGTC
Residues (chain): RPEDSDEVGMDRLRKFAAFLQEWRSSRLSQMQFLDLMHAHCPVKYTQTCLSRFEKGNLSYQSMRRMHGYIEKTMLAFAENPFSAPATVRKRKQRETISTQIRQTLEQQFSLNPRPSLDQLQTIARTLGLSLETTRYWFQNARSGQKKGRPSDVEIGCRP
For `GACTTAAT`, “relative binding energy” read 0.111 ln ratio.
`ATTCAAAT` — result for “relative binding energy”: 1.07 ln ratio.
`ATGCCACA` — result for “relative binding energy”: 1.2 ln ratio.
`AGAATAAT`: “relative binding energy” 0.291 ln ratio.
`ATGCTTGG` — result for “relative binding energy”: 1.52 ln ratio.
`AATGTAAT`: “relative binding energy” 0.451 ln ratio.
`AACATAAT` — result for “relative binding energy”: 0.3 ln ratio.
`ATGCTGCT`: “relative binding energy” 1.53 ln ratio.
For `ATCCTTAT`, “relative binding energy” read 0.784 ln ratio.
Under “relative binding energy”, `AAACTAAT` is recorded as 0.285 ln ratio.
`ATGCAGGT`: “relative binding energy” 1.28 ln ratio.
For `ATATTGAT`, “relative binding energy” read 0.818 ln ratio.
Under “relative binding energy”, `GTAATAAT` is recorded as -0.486 ln ratio.
For `ATGCTGAC`, “relative binding energy” read 0.811 ln ratio.
For `ATGCCGTA`, “relative binding energy” read 1.17 ln ratio.
Under “relative binding energy”, `ATTAAAAT` is recorded as 0.0196 ln ratio.
Under “relative binding energy”, `GCACTAAT` is recorded as 0.661 ln ratio.

Mixed results
With `PhoQ, residues 284 288 289 292 302 303 ASVMEA` the fold induction was 10.3 and 22.2 (PhoP, residues 12 14 15 18 19 LWHSL (Escherichia coli, UniProt P23836); Sort-seq, refers to: YFP reporter; E. coli; PhoQ-PhoP variant library, with: 10 µM Mg2+; reference: high Mg2+ state, higher = stronger signaling).

A few entries again (block 1):
The E-score of `CCCCTGCC` is reported as -0.0878.
`GAGCAATA` gave an E-score of -0.261.
`CTACACGC` has an E-score of 0.001.
With `AACTCAGT` the E-score was -0.192.
`CAGCAATC` gave an E-score of -0.201.
The E-score of `ATCTCATA` is reported as -0.196.
With `GACTCCCC` the E-score was -0.158.
`ATCAACGG` has an E-score of 0.181.
`AGTCGGAG` gave an E-score of -0.0353.
`AGACCAAT` gave an E-score of -0.146.
With `CAACTCGC` the E-score was 0.0336.
With `ATCGTGGA` the E-score was -0.139.
